Measurements from different studies.
Each numbered part is a random draw from the data of one study; scales do not carry over between parts.

Sample 1 — method: EMSA with sequencing; form: double-stranded DNA, one strand shown; medium: in vitro; tested at: 10 and 20 nM; relative to: negative control set to 0; reading: higher = stronger binding
Target: Hepatocyte nuclear factor 3-alpha (Foxa1, Mus musculus, UniProt P35582, residues 1-468, full length assumed)
Chain of UniProt P35582 (whole entry, looked up): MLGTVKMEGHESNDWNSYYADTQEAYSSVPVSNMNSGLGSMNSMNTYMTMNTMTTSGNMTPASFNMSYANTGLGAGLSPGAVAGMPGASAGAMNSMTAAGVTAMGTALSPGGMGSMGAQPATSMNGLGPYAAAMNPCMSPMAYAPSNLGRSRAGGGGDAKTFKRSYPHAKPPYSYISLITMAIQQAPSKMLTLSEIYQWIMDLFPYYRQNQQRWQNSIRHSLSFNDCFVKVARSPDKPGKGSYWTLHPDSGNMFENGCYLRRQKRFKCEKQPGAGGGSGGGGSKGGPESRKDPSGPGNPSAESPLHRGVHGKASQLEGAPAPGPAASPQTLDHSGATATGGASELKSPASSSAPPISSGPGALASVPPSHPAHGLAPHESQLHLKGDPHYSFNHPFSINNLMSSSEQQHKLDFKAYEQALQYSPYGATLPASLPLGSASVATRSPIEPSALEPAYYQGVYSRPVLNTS
Setting: whole designed probe, mean of two concentrations, ends assumed
Shared flanks, not repeated: GTGAGCGGTGCCCATTGATGGGGAAC … TTTCACTGGGATCGTGGGGAC
Strand | normalised bound fraction [ratio]
CCCTCATCCTGGGTGTCGGGGTGGGAGGTGTTCTCATCATGAATGGGAGGCGTACCCAGATCCAGCTCTGCCTTTTTTTAACCAAACCAGAGTGTAATCTAATGGCTGTGTGACTCACCATAATCGACATAGCAAGATATGATACATGCCAGGAGAGAAAAAGAAAGTGCTGATGGAAAAATAATCTCATTAG | 0.038
TTCTGGTAACTCCAACTTTTGGCTCATTTGTGGGTCAGACAGATCTGAGAAGCTTGGTTTTTTTTTACTCTGTCTCAGGTACTTTATATTTAGAGATTACATTCCTAGCCAGAGAAGCATTTATGTAATCTCTCTCTATATTTAATGACTCAGTTTAAGAAAATGCTTACAATAATTGAGGTCTCCTTGTTTC | -0.00347
AATTTAGCCTAAGTCTGCCTCCTTACATATTAATATTTTAAGTTTGGCCTAAAGGTTTCCCCTTACAAAGTAAACTGCAGCCTAACTAGCTGTGTAATCTCACTATTCTTAACACCAATCACAGATTTTCAGCAAGTCACAGGAAGTCAGCTGTTAACAAACTTTAAATAAAGCAATCTCCAAGCTGTAAGCA | 0.0395
TAGTTCTTTCTTTTGTTTCCACCTTCTTGGATTCATCAAGTATTTTTTAGTATTCCATTTTATCTCATCTGTTATCTTTTGCTGTATTATTTGAAATTACTTTTGGGATTACAATATGCATCCTTAATTTAGCATGGTCTACTTGAAATTAATAACATACTACTTTGTTGTATAATGTAAGAATTTTACTAAT | 0.0464
ACGGTGTTTGCAGAGTGACTGTTCCCCTGGGGGACCCTAGGCTTGTCCTGGCCTTACCTTTGTCCCATCAGTTGCTGCTCTGGCTGGGGAAGTTGTTTACATTGGCTGCTGTGTGCTGCTGCTAGGAATTTTGAGGAGTGTGCACTTTTTTTTTTTTTTTTTTGCTGTTGTTGAGGCGGAGTCTCGCTCTGTC | 0.433
CATTTGCCTCACACAGAGTTACAAAAGTTACACCCTGTTTTCAGAAAAACTTTCCCAATACAGGCAGAGAGTTCATGTTTATTTCATAAACCTTGTTTGCTTACATGTTCCAACCATTTTACAAATACTAACTCATTAAATCCTCATAACAACTCAATGGGGTAGGTTGTATTATTACCTTCATTTTACAGGT | 0.248
ATTGATATAATAAAAAAACACTGATAAAGTTTATTAAAACACTTAAAGGACATTTCTCATTTTGCATAATATTTTGTAATAAAATCATCTATGTAAATATGGAAAATGTGTAGGGAAGTGAGAAGAACATTAACCACACAAAGTGTACCCCTGAGTCTCTATGAGATTTCATTTCCTTTTGTAAAATAAAATG | 0.37
GGACACAGCCAGAGGCCATGAGTGCTCAGGAGTGCCATAAACTGTGATTTTGAGACTGATAACTGGGTGTGTCGGCCAGGCTAAATAGCTTGTTGTTTGCCTTTTTATATTTGAGGCCTATAAAAAAATAGTGAGAAAATAGCAAGATGCCCAGGAGACAGGTGATCTGATTCAGCCAGGGGGTGGGAGGTGG | 0.0486

Sample 2 — method: RNA Bind-n-Seq; form: RNA; medium: in vitro; tested at: not given; relative to: input RNA pool; reading: higher = stronger binding
Target: RING finger protein unkempt homolog, zinc fingers 1-6, GST-SBP tag (UNK, Homo sapiens, UniProt Q9C0B0, residues 30-357)
Setting: RNA with constant flanks, human-mouse chimeric sites, ends assumed
Shared flanks, not repeated: GGGAGUUCUACAGUCCGACGAUC … CAACAGAGGAUUGAGCAUCA
Construct (chain): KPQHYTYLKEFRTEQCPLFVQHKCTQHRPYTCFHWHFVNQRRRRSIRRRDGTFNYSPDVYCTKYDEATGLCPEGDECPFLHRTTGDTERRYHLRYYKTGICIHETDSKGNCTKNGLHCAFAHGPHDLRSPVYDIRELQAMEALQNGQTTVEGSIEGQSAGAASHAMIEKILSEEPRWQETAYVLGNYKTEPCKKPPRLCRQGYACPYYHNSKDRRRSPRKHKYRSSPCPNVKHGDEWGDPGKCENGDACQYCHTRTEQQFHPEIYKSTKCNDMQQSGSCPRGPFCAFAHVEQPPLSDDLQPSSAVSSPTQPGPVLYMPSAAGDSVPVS
Strand | bound/input enrichment [ratio]
GUGUCCUGCUUUCAACUUAAAUCACUGAGGCAUCUCUACUAUUCUGUUAAAAUCAGGACUGUAGCGCUGUGUCACCACAUGAGAGUUCAGAAGCAGCCUUUCUGUGGAGGGUGGGAAUGA | 0.132
GAAUCCUACUCAGGCGGAUUUUGCAACACCAAGCUCACAGCAGCAGCAUCUUAGUCACAGUAGGGUAGCUUUAGGGCUCUGUGGCCAGGGUUUUAUUCACAUGCAGGUUUGGAAAAUGUA | 0.65
GGAAGCACAAUGAUGGAGAUUGAUGGUGACAAAGGCAAGCAGGGCGGGCCCACCUACUACAUAGACACCAAUGCCCUCCGCGUGCCCAGGGAGAAUAUGGAGGCCAUCUCACCACUCAAG | 0.195
UCCCAAAUCCAGCAGCUAGAAGGAGCCUUGAGACAAACACUCCACACGCAGGGAGGGCGAUAACAUUGUAAAUUGGUUUACAUUUUUUCCCCCUGUGGAUUUUUCUAGAGGUCAUAGUGC | 0.417
GCUGGAUCUUCUAAGUACCAGUGGGACAUUAUGAAAUCCCUUGGGCUCUCUGAUGACGACAUAGUGAAAUUUUCUGAAGCAGAGCACUGGCUUGAUUAUUUCCCACCACUGGCCGUUCAG | 0.245
UGGCGCCUGCGCUCCCCACUCGUGUUUUUAAGUGUAUAAGAUGUAUAUACAUGUAUUUACAAUUGAGCUUUUGUUACAUAAUGCUGAAAACAUCUCUGAGAUUAUGAAAAAUGUUUCAAU | 0.085
CUGAGGAUACCACUGAAGAGACCUUAAAAGAAUCAUUUGAGGGCUCUGUUCGUGCAAGAAUAGUCACUGAUCGGGAAACUGGUUCUUCCAAAGGGUUUUGGUUUUGUAGACUUCAACGUG | 0.33
AAAAUAGACUAUGGCGAGUACAUGGAUAAAAACAAUGUGAGGCGGCAAGCAACAACAAUCAUAGCUGAUAACAUUAUAUUUCUGAGUGACCAGACAAAAGAAAAGGCAUAGAACGGAUGA | 3.22
GAGCCCAGUCGGCAGUUUGUAAAGGACUCAAUUCGGCUGGUUAAAAGAUGCACCAAACCUGAUAGAAAAGAAUUCCAGAAGAUUGCCAUGGCUACAGCUAUAGGAUUUGCUAUCAUGGGA | 0.314
CAGGGCAUCAUCUCUCGAGCUGUUAAACACCUGUUCAAGAGUAUUGAUGAGAAAAAGCACAUAGCAAUUAAAAACGGGCUGCCCCCUCCUGAAUUCAAAGUGAAUGCCCAGUUCCUAGAG | 1.15
CUCAUGGCUGCAGAAACAGGAAGUGGAAAAACUGGUGCUUUUAGUAUUCCCGUUAUCCAGAUAGUGUAUGAAACUCUGAAAGACCAACAGGAAGGAAAGAAAGGGAAAACAACUAUUAAA | 0.621

Sample 3 — method: RNA Bind-n-Seq; form: RNA; medium: in vitro; tested at: 365 nM; relative to: no-protein control; reading: higher = stronger binding
Target: RNA binding protein fox-1 homolog 2, RRM domain, GST-SBP tag (RBFOX2, Homo sapiens, UniProt O43251-10, residues 100-194)
Setting: natural RNA segment, single round, ends assumed
Shared flanks, not repeated: GGGAGUUCUACAGUCCGACGAUC … UGGAAUUCUCGGGUGCCAA
Construct (chain): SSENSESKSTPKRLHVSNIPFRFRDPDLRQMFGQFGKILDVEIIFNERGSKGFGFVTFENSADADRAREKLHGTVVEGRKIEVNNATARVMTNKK
Strand | RBNS enrichment (R)
AGGUGGAUGGGUUGCUUUAUAAAUGUGCCUGGUGCAUGAGAAACUCUUGUUUCAGCUCUUGGCCUUUACCCAUGACUCAGCCUGGGGGCUGGUGCCGGCCUUGCCUGCAG | 2.14
AUAAGUUCCACUGUACAAUGUCCUUUUCAGGUGGAAUUUUCUCUAUUGCUUUGAUAAACAGAGUUGUUUGGAAUUAUUGAAGAACAUUUUAAAAUGACUCCCUCAGUGAG | 0.56
UGCCUCCACCUCCCCUAUCCACCAAGAUGUAGAAUUGUGAAUAUAACUGCAAAAAGUUAGUCUUAUGUAUAGACAUUAUUUUCGUCGUAUGUUUCUAUAUUUUGAAACAG | 0.602
AGCAGCACCUCCCUCAUGGCUGUCUGCACCUGCCCACCUACCUGGCUCUGACCGUUCCCACCACCAUCUGCAUGUCCCCACUGGGCCUGAGUCUAGCCUGGGAGCCAGGA | 16.5
UGCUUGUCAGAGCUGUGGCAGUACUUAACUCUGAGGAUGUAGGAGACGUGACUGGCUUUUAGAGUGAGCAUUUCAGUGGUUAGCUAUCAGCUUUUGAAGUCUGGGCAGUU | 2.97
AUCUGUCCUUAAUGUCAAAUGAUGAAUCCAGUUUGAAUCAGCUGUCAUUCCAAGCUAUCAUGCUCACGCCAUGUCAACAGCACCAUUUGUACUAAUGCUAAUAAUUCCAU | 0.54
GCCCCCAUUCAGGGGCCGACUAACACCCUUUAUCCAAUGGUGCUAACCCCGGCUCUCCCUUUUCCACCCUACCCACCUAAAGAAGCACAGGCCCCACGAAGCAGGGGCCA | 0.315
AUAUCUUGUAGUUUUCAGAAAAGCCUUUGGAAAUCUGGAUCAGAAAAUAGAUACCAUGGUUUGUGCAAUUAUGUAGUAAAAAAGGCAAAUCUUUUCACCUCUGGCUAUUC | 0.625
GAAGUCUUUAAUAAAUAACCCAUAAUUGAAGUGUAUAAUAUAAAAAAUUUUAAAAAUCUAAGCAGCUUAUUGUUUCUCUGAAAGUGUGUGUAGUUUUACUUUCCUAAGGA | 0.621
UUGGAGAACUGCACUAAACCCACUAAACAGAUGCAAAAACCUGACCAGGCCCAACACCCACCCUGCCUGGCUCCUCUCCUCAUCCAGACUAACUCUACUGUGAAGUCCCA | 0.428
AGAAUGAUGGAUGUAAAUUGGAUGUAAAUAUUCAGUUUAUAUAAUUAUAUCUAAUUUGUACCCUUGUUGAAAUUGUCAUUUAUACAAUAAAGCGAAUUCUUUAUCUCUAA | 0.335
ACUGUUCCUGUCAGGAUUUGUUUCCCUCUGCUGUGGCGGUGACUGCUUCUGGACCAGAACAGCUCCAGCUCCCAGGUAUUUUCUACAGGACCACUUGAGUGGGCAGCCAA | 0.311

Sample 4 — method: universal PBM; form: double-stranded DNA, one strand shown; medium: in vitro; tested at: not given; reading: higher = stronger binding
Target: Sal-like protein 4, full length isoform B (SALL4, Homo sapiens, UniProt Q9UJQ4-2, residues 1-616)
Setting: 8-mer, flanks averaged, mean of replicates
Strand | E-score
GGGGTGAA | -0.0846
CGCATCAA | 0.0176
AGCACTAT | 0.0721
CGCCCGAG | -0.342
ACAACGGT | -0.0369
CCGAGTGC | -0.284
AGTCTCGA | -0.0268
CGTGTCCC | -0.196
GAGTACAA | 0.109
ATTCCGAG | -0.00804
AGTTAACC | -0.0721
CCGCACTA | -0.11
ACTCAACA | 0.195
AGGGGCGC | -0.308
AATGGGAG | 0.0153
CATCGGTC | -0.212
AAATACGC | 0.0993
CTTTTGGC | 0.00512
ACTCCCAG | -0.191
CCGCGCCG | -0.273
AGCCGCTG | -0.26
AGCCAACG | -0.0399
AATTGTAG | 0.232
GGCGACCC | -0.371
AGTGGATA | 0.0284

Some of these lines once more (sample 4):
Strand | E-score
AGCACTAT | 0.0721
AGTGGATA | 0.0284
AGTTAACC | -0.0721
AATTGTAG | 0.232
